Measured values collected from several papers.
Every numbered part comes from another study and shows a few of its results, in no order. Substitutions count along the parent as printed.

Study 1
Target: Histone acetyltransferase KAT6A, winged helix 1, GST fusion (KAT6A, Homo sapiens, UniProt Q92794, residues 1-85)
Method: protein binding microarray
Form: double-stranded DNA, one strand shown
Medium: in vitro
Tested at: not given
Setting: 8-mer, flanks averaged, mean of 2 arrays, mostly near background
Baseline: not given
Reading: higher = stronger binding
Measurement: E-score
Target sequence (chain): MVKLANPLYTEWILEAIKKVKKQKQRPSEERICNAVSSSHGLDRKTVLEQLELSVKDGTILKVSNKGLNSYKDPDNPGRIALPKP
AAGGCTTC: -0.096
ATATCAAT: -0.136
CTTTTTCA: -0.267
CCAAAGCG: 0.373
CATTACAC: -0.0356
AAACCATG: -0.0605
GAGCTCCA: -0.132
ACACGAGT: -0.091

Study 2
Target: CCNB1, cyclin fold, Cln2 fusion (human)
Method: yeast growth competition, sequencing
Medium: yeast
Setting: weak parent motif
Baseline: not given
Reading: higher = stronger binding
Measurement: normalised enrichment score
Parent: WEE1 docking peptide (human); HKTFRKLRLFDTP
D11A: 0.542
R5K: 0.0313
L7V: 0.137
K6V: 0.617
K6R: 0.333
D11P: 0.914
F10Y: -0.287
R8H: 1.15
R5P: -0.246
D11V: 0.611

Study 3
Target: Interferon regulatory factor 3, full length, phosphomimetic (IRF3, Homo sapiens, UniProt Q14653, residues 1-427, S386D/S396D/S398D/S402D/T404D/S405D)
Method: protein-binding microarray
Form: double-stranded DNA, one strand shown
Medium: in vitro
Tested at: 2540 nM top
Setting: 60-bp whole probe
With: salmon DNA 0.4 mg/ml
Baseline: random background probes
Reading: higher = stronger binding
Measurement: fitted relative affinity
Constant ends, left off below: GCCTAGCAC … GTCTTGATTCGCTTGACGCTGCTG
Residues (chain): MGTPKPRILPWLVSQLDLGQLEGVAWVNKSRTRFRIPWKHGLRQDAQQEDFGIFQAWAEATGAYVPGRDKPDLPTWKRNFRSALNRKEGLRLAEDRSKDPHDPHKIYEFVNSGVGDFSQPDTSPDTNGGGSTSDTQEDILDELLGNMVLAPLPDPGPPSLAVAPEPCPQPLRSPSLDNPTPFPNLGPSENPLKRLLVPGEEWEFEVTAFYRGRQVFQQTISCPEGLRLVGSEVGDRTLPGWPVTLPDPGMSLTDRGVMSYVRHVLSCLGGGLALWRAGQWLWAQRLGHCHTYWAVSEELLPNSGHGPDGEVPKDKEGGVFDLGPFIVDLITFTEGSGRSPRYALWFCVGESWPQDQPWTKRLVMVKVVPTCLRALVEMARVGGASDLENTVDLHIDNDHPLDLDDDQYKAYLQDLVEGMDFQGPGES
GCCGATATCGGGTTTCGAGACGTGCTA: 1.59 z-score
TTAGGTCTCGGTCTCGGATAGTGCTAG: 1.15 z-score
ACAAATGGCCAACAAACATTGTGCTAG: -0.11 z-score
TCACTCTTCTTTTGCTAACTGTGCTAG: 1.83 z-score
GACGGTATCCTTATCCAGACGTGCTAG: 5.35 z-score
TCATCTTGCTTTTTAGAACTGTGCTAG: 1.74 z-score
GCTCTCTTCTGCTTCCTCAGGTGCTAG: 1.2 z-score
AGAAGATAAGCTGCAAGAAAGTGCTAG: -0.695 z-score
GAAGATTTCAATTAAAAAAAGTGCTAG: 0.623 z-score

Mixed results
PhoQ, residues 284 288 289 292 302 303 SLKLQV — fold induction (PhoP, residues 12 14 15 18 19 HHYTI (Escherichia coli, UniProt P23836); Sort-seq, measured: YFP reporter; E. coli; PhoQ-PhoP variant library, with: 10 µM Mg2+; baseline: high Mg2+ state, higher = stronger signaling): 8.37

Repeated from above (study 3):
GACGGTATCCTTATCCAGACGTGCTAG: 5.35 z-score
TCACTCTTCTTTTGCTAACTGTGCTAG: 1.83 z-score
ACAAATGGCCAACAAACATTGTGCTAG: -0.11 z-score
